# Published values pooled from the literature.
# ± marks the error that the study gave.
# Organism: Escherichia coli
SMILES,assay,system,setting,how to read,MIC
C[C@@H](O)[C@H]1C(=O)N2C(C(=O)O)=C(S[C@@H]3CN[C@H](CNS(N)(=O)=O)C3)[C@H](C)[C@H]12,,BL21(DE3) wild type,,,< 0.09 µg/mL
CC[C@H](C)[C@H](NC(=O)CNC(=O)[C@H](CC(=O)O)NC(=O)[C@H](CCCNC(=N)N)NC(=O)[C@@H](NC(=O)[C@H](CC(N)=O)NC(=O)[C@H](CCCNC(=N)N)NC(=O)CNC(=O)[C@@H](NC(=O)[C@H](CCCCN)NC(=O)[C@H](CCC(=O)O)NC(=O)[C@@H](NC(=O)[C@H](CCCCN)NC(=O)[C@H](CCCCN)NC(=O)[C@H](Cc1ccccc1)NC(=O)[C@@H](NC(=O)[C@H](CCC(=O)O)NC(=O)[C@H](Cc1c[nH]c2ccccc12)NC(=O)[C@@H](N)CCCNC(=N)N)[C@@H](C)CC)[C@@H](C)CC)C(C)C)C(C)C)C(=O)N[C@H](C(=O)N[C@@H](CCCCN)C(=O)N[C@@H](C)C(=O)NCC(=O)N1CCC[C@H]1C(=O)N[C@@H](C)C(=O)N[C@H](C(=O)N[C@@H](C)C(=O)N[C@H](C(=O)N[C@H](C(=O)NCC(=O)N[C@@H](CCC(N)=O)C(=O)N[C@@H](C)C(=O)N[C@@H](C)C(=O)N[C@H](C(=O)N[C@H](C(=O)N[C@H](C(=O)N[C@@H](CCCCN)C(N)=O)C(C)C)C(C)C)[C@@H](C)O)C(C)C)C(C)C)C(C)C)[C@@H](C)CC,,"KCTC 1682, Mueller-Hinton broth","16 h, 37 °C",growth inhibition over 99%,32 µM
C[C@@H](O)[C@H]1C(=O)N2C(C(=O)O)=C(S[C@@H]3CN[C@H](C(=O)N(C)C)C3)[C@H](C)[C@H]12,,DH5α cloned blaKPC-144,,,0.5 µg/mL
CC[C@H](C)[C@H](N)C(=O)N[C@@H](CO)C(=O)N[C@@H](Cc1ccccc1)C(=O)N[C@@H](CC(C)C)C(=O)NCC(=O)N[C@@H](CO)C(=O)N[C@@H](CCCCN)C(=O)N[C@H](C(=O)N[C@H](C(=O)N[C@H](C(=O)N[C@@H](CC(C)C)C(=O)N[C@@H](CC(C)C)C(=O)N[C@@H](CCCCN)C(=O)N[C@@H](CCCNC(=N)N)C(=O)N[C@@H](CCCNC(=N)N)C(=O)N[C@@H](CCCCN)C(=O)N[C@@H](CCCNC(=N)N)C(=O)N[C@@H](CCCCN)C(=O)N[C@@H](CCCNC(=N)N)C(=O)N[C@@H](CCCCN)C(N)=O)C(C)C)C(C)C)C(C)C,checkerboard,,"24 h, 37 °C, alone, rifampicin plate",,8 µM
CC[C@H](C)[C@H](NC(=O)[C@H](Cc1c[nH]c2ccccc12)NC(=O)[C@@H](NC(=O)[C@@H](NC(=O)[C@@H](NC(=O)[C@H](CCCNC(=N)N)NC(=O)[C@@H](N)CCCNC(=N)N)[C@@H](C)CC)[C@@H](C)O)[C@@H](C)CC)C(=O)N[C@H](C(=O)N[C@H](C(=O)N[C@@H](CCCNC(=N)N)C(=O)N[C@@H](CCCNC(=N)N)C(N)=O)[C@@H](C)CC)[C@@H](C)O,broth microdilution,"25922, Mueller-Hinton broth","24 h, 37 °C, lowest concentration, 95% inhibition, together with: BSA",,32 µM
CC[C@H](C)[C@H](NC(=O)[C@H](C)NC(=O)[C@H](CCC(N)=O)NC(=O)[C@@H](NC(=O)[C@@H](NC(=O)[C@H](CCCNC(=N)N)NC(=O)[C@@H](N)CCCCN)[C@@H](C)CC)C(C)C)C(=O)N[C@@H](CCCCN)C(=O)N[C@@H](CC(=O)O)C(=O)N[C@@H](Cc1ccccc1)C(=O)N[C@@H](CC(C)C)C(=O)N[C@@H](CCCNC(=N)N)C(N)=O,broth microdilution,K12,"16 h, 37 °C",,40 ± 20 µM
N=C(N)NCCC[C@H](NC(=O)[C@@H](N)CCCNC(=N)N)C(=O)N[C@@H](Cc1c[nH]c2ccccc12)C(=O)N[C@@H](Cc1c[nH]c2ccccc12)C(=O)N[C@@H](CCC(N)=O)C(=O)N[C@@H](Cc1ccccc1)C(=O)N[C@@H](CCC(N)=O)C(=O)N[C@@H](Cc1ccccc1)C(=O)N[C@@H](CCCCN)C(N)=O,"broth microdilution, optical density",,,,4.8 µM
Cc1ccc2[nH]c3c(c2c1)CCCC3NCCc1ccc(Br)cc1 (stereo not drawn),broth microdilution,O-19592,,,> 128 µg/mL
CC[C@H](C)[C@H](N)C(=O)N[C@@H](CC(C)C)C(=O)NCC(=O)N[C@H](CCCNC(=N)N)C(=O)N[C@H](C(=O)N[C@@H](Cc1ccccc1)C(=O)N[C@@H](CCCCN)C(=O)NCC(=O)N[C@H](C(=O)N[C@@H](CCCCN)C(=O)N[C@@H](CC(=O)O)C(=O)N[C@H](C(=O)N[C@@H](CC(C)C)C(N)=O)[C@@H](C)CC)[C@@H](C)CC)[C@@H](C)CC,broth microdilution,"ATCC 25922, Mueller-Hinton broth","16 h, 37 °C",,12.5 µM
CC(C)C[C@@H](NC(=O)CNC(=O)[C@@H](CCCCN)NC(=O)[C@@H](CC(C)C)NC(=O)[C@@H](CCCCN)NC(=O)[C@@H](CCCNC(=N)N)NC(=O)[C@@H](CC(C)C)NC(=O)[C@@H](CC(C)C)NC(=O)[C@@H](CCCNC(=N)N)NC(=O)[C@H](N)CCCNC(=N)N)C(=O)N[C@H](CCCCN)C(=O)N[C@H](CCCCN)C(=O)N[C@H](Cc1ccc(O)cc1)C(=O)N[C@H](CC(C)C)C(=O)N[C@H](Cc1ccc(O)cc1)C(=O)N[C@H](Cc1ccccc1)C(=O)N[C@H](CCCCN)C(=O)N[C@H](CC(C)C)C(=O)N[C@H](CCC(N)=O)C(=O)N[C@H](CC(C)C)C(=O)N[C@H](CC(C)C)C(=O)N[C@H](CCCCN)C(=O)N[C@H](CCCCN)C(N)=O,broth microdilution,"KCTC 1682, Mueller-Hinton broth","24 h, 37 °C",,2 µM
C[C@@H](O)[C@H]1C(=O)N2C(C(=O)O)=C(S[C@@H]3CN[C@H](C(=O)N(C)C)C3)[C@H](C)[C@H]12,,DH10B expressing VIM-2/pBCSK-,,,0.5 µg/mL
O=C(O)CN(CC(=O)O)CC(=O)O,,"ATCC 25922, no carbapenemase","32 µg/mL, MIC of meropenem, together with: meropenem",,≤ 0.0625 µg/mL
CC[C@H](C)[C@H](NC(=O)[C@@H](NC(=O)[C@H](C)NC(=O)[C@H](CCCCN)NC(=O)[C@H](CCCNC(=N)N)NC(=O)CNC(=O)[C@H](CCSC)NC(=O)[C@H](CCC(=O)O)NC(=O)[C@H](CCC(N)=O)NC(=O)[C@@H](NC(=O)[C@H](CCCCN)NC(=O)[C@H](CC(N)=O)NC(=O)[C@H](CCCCN)NC(=O)[C@H](CC(C)C)NC(=O)[C@H](Cc1ccc(O)cc1)NC(=O)[C@H](CCC(N)=O)NC(=O)[C@H](CCCNC(=N)N)NC(=O)[C@@H](NC(=O)[C@@H](NC(=O)[C@H](CCC(=O)O)NC(=O)[C@H](CCCCN)NC(=O)CN)[C@@H](C)O)[C@@H](C)CC)[C@@H](C)CC)C(C)C)C(=O)O,broth microdilution,"K88, Mueller-Hinton broth",37 °C,,54 µM
C[C@H]1COc2c(N3CCN(C)CC3)c(F)cc3c(=O)c(C(=O)O)cn1c23,agar dilution,08-85 mcr-1,,,16 µg/mL
CC1(C)CC[C@]2(C(=O)O)CC[C@]3(C)C(=CC[C@@H]4[C@@]5(C)CC[C@H](O)C(C)(C)[C@@H]5CC[C@]43C)[C@@H]2C1,,BL21 pET28a-SP-NDM-1,,,512 µg/mL
CC[C@H](C)[C@H](NC(=O)[C@H](CC(C)C)NC(=O)[C@H](CCCNC(=N)N)NC(=O)[C@@H](N)CCCNC(=N)N)C(=O)N[C@@H](CCCNC(=N)N)C(=O)N[C@@H](CCCCN)C(=O)N[C@@H](CC(C)C)C(=O)N[C@@H](CCCCN)C(=O)NCC(=O)N[C@@H](CC(C)C)C(=O)N[C@@H](CCCCN)C(=O)N[C@@H](CCCCN)C(=O)N[C@@H](Cc1ccc(O)cc1)C(=O)N[C@@H](CC(C)C)C(=O)N[C@@H](Cc1ccc(O)cc1)C(=O)N[C@@H](Cc1ccccc1)C(=O)N[C@@H](CCCCN)C(=O)N[C@@H](CC(C)C)C(=O)N[C@@H](CCC(N)=O)C(=O)N[C@@H](CC(C)C)C(=O)N[C@@H](CC(C)C)C(=O)N[C@@H](CCCCN)C(=O)N[C@@H](CCCCN)C(N)=O,,"KCTC 1682, Mueller-Hinton broth",together with: 150 mM NaCl,,16 µM
CC(C)(C)OCC1NC(=O)C(C(=O)NC(C(=O)NC2C(=O)N3C2SC(C)(C)C3C(=O)O)c2ccccc2)=C1O (stereo not drawn),broth microdilution,"isolate IU, CTX-M-14, TEM-1",together with: clavulanic acid 6 µg/mL,,> 200 µg/mL
CC(C)Oc1c(NC(=O)c2ccc(N3C(=O)C[C@H](NC(=O)c4cc(F)c(/N=N/c5c(F)cccc5F)c(F)c4)C3=O)cc2)ccc(C(=O)N/N=C/c2c(Cl)cncc2Cl)c1O,,BW25113,"18 h, 37 °C, dark-adapted state",,> 6.4 µg/mL
CC(C)CC1NC(=O)C(C(=O)NC(C(=O)NC2C(=O)N3C2SC(C)(C)C3C(=O)O)c2ccccc2)=C1O (stereo not drawn),broth microdilution,JW0790-2 fiu deletion mutant,ferric iron uptake gene,,25 µg/mL
CC[C@H](C)[C@H](NC(=O)CNC(=O)[C@H](CC(=O)O)NC(=O)[C@H](CCCNC(=N)N)NC(=O)[C@@H](NC(=O)[C@H](CC(N)=O)NC(=O)[C@H](CCCNC(=N)N)NC(=O)CNC(=O)[C@@H](NC(=O)[C@H](CCCCN)NC(=O)[C@H](CCC(=O)O)NC(=O)[C@@H](NC(=O)[C@H](CCCCN)NC(=O)[C@H](CCCCN)NC(=O)[C@H](Cc1ccccc1)NC(=O)[C@@H](NC(=O)[C@H](CCCCN)NC(=O)[C@H](Cc1c[nH]c2ccccc12)NC(=O)[C@@H](N)CCCNC(=N)N)[C@@H](C)CC)[C@@H](C)CC)C(C)C)C(C)C)C(=O)N[C@H](C(=O)N[C@@H](CCCCN)C(=O)N[C@@H](C)C(=O)NCC(=O)N1CCC[C@H]1C(=O)N[C@@H](C)C(=O)N[C@H](C(=O)N[C@@H](C)C(=O)N[C@H](C(=O)N[C@H](C(=O)NCC(=O)N[C@@H](CCC(N)=O)C(=O)N[C@@H](C)C(=O)N[C@@H](C)C(=O)N[C@H](C(=O)N[C@H](C(=O)N[C@H](C(=O)N[C@@H](CCC(=O)O)C(N)=O)C(C)C)C(C)C)[C@@H](C)O)C(C)C)C(C)C)C(C)C)[C@@H](C)CC,,"KCTC 1682, Mueller-Hinton broth","16 h, 37 °C",growth inhibition over 99%,2 µM
CC[C@H](C)[C@H](NC(=O)CN)C(=O)NCC(=O)N[C@@H](CCCCN)C(=O)N[C@@H](Cc1ccccc1)C(=O)N[C@@H](CC(C)C)C(=O)N[C@@H](Cc1c[nH]cn1)C(=O)N[C@@H](CO)C(=O)N[C@@H](C)C(=O)N[C@@H](CCCCN)C(=O)N[C@@H](CCCCN)C(=O)N[C@@H](Cc1ccccc1)C(=O)NCC(=O)N[C@@H](CCCCN)C(=O)N[C@@H](C)C(=O)N[C@@H](Cc1ccccc1)C(=O)N[C@H](C(=O)NCC(=O)N[C@@H](CCC(=O)O)C(=O)N[C@H](C(=O)N[C@@H](CCSC)C(=O)N[C@@H](CC(N)=O)C(=O)N[C@@H](CO)C(N)=O)[C@@H](C)CC)C(C)C,broth dilution,K12 BW25113,"18 h, 37 °C",,3.6 µM

# Repeated from above:
SMILES,assay,system,setting,how to read,MIC
CC[C@H](C)[C@H](NC(=O)[C@H](C)NC(=O)[C@H](CCC(N)=O)NC(=O)[C@@H](NC(=O)[C@@H](NC(=O)[C@H](CCCNC(=N)N)NC(=O)[C@@H](N)CCCCN)[C@@H](C)CC)C(C)C)C(=O)N[C@@H](CCCCN)C(=O)N[C@@H](CC(=O)O)C(=O)N[C@@H](Cc1ccccc1)C(=O)N[C@@H](CC(C)C)C(=O)N[C@@H](CCCNC(=N)N)C(N)=O,broth microdilution,K12,"16 h, 37 °C",,40 ± 20 µM
Cc1ccc2[nH]c3c(c2c1)CCCC3NCCc1ccc(Br)cc1 (stereo not drawn),broth microdilution,O-19592,,,> 128 µg/mL
CC[C@H](C)[C@H](NC(=O)CNC(=O)[C@H](CC(=O)O)NC(=O)[C@H](CCCNC(=N)N)NC(=O)[C@@H](NC(=O)[C@H](CC(N)=O)NC(=O)[C@H](CCCNC(=N)N)NC(=O)CNC(=O)[C@@H](NC(=O)[C@H](CCCCN)NC(=O)[C@H](CCC(=O)O)NC(=O)[C@@H](NC(=O)[C@H](CCCCN)NC(=O)[C@H](CCCCN)NC(=O)[C@H](Cc1ccccc1)NC(=O)[C@@H](NC(=O)[C@H](CCC(=O)O)NC(=O)[C@H](Cc1c[nH]c2ccccc12)NC(=O)[C@@H](N)CCCNC(=N)N)[C@@H](C)CC)[C@@H](C)CC)C(C)C)C(C)C)C(=O)N[C@H](C(=O)N[C@@H](CCCCN)C(=O)N[C@@H](C)C(=O)NCC(=O)N1CCC[C@H]1C(=O)N[C@@H](C)C(=O)N[C@H](C(=O)N[C@@H](C)C(=O)N[C@H](C(=O)N[C@H](C(=O)NCC(=O)N[C@@H](CCC(N)=O)C(=O)N[C@@H](C)C(=O)N[C@@H](C)C(=O)N[C@H](C(=O)N[C@H](C(=O)N[C@H](C(=O)N[C@@H](CCCCN)C(N)=O)C(C)C)C(C)C)[C@@H](C)O)C(C)C)C(C)C)C(C)C)[C@@H](C)CC,,"KCTC 1682, Mueller-Hinton broth","16 h, 37 °C",growth inhibition over 99%,32 µM
